Experimental data of several laboratories.
A part holds a random share of what one study measured.
Chain of UniProt P55265 (595-700, looked up): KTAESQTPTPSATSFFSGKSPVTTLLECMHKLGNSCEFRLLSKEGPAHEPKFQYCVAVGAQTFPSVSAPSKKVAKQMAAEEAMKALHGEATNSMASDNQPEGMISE

Sample 1 — technique: protein binding microarray; form: double-stranded DNA, one strand shown; sample: in vitro; tested at: not given; baseline: not given; reading: higher = stronger binding
Target: Histone acetyltransferase KAT6A, winged helix 1, GST fusion (KAT6A, Homo sapiens, UniProt Q92794, residues 1-85)
Notes: 8-mer, flanks averaged, mean of 2 arrays, mostly near background
Construct (chain): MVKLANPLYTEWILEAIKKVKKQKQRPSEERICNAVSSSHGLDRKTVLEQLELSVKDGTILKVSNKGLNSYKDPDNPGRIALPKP
Oligonucleotide | E-score
TATCAAGA | -0.318
GGACGGCC | 0.384
TGGTCAAA | -0.0639
GGTCTAAC | -0.046
ATGACACA | -0.14
GGCAAAGA | 0.157

Sample 2 — technique: universal PBM; form: double-stranded DNA, one strand shown; sample: in vitro; tested at: 600 nM; reading: higher = stronger binding
Target: Sal-like protein 4, full length isoform A (SALL4, Homo sapiens, UniProt Q9UJQ4, residues 1-1053)
Chain of UniProt Q9UJQ4 (whole entry, looked up): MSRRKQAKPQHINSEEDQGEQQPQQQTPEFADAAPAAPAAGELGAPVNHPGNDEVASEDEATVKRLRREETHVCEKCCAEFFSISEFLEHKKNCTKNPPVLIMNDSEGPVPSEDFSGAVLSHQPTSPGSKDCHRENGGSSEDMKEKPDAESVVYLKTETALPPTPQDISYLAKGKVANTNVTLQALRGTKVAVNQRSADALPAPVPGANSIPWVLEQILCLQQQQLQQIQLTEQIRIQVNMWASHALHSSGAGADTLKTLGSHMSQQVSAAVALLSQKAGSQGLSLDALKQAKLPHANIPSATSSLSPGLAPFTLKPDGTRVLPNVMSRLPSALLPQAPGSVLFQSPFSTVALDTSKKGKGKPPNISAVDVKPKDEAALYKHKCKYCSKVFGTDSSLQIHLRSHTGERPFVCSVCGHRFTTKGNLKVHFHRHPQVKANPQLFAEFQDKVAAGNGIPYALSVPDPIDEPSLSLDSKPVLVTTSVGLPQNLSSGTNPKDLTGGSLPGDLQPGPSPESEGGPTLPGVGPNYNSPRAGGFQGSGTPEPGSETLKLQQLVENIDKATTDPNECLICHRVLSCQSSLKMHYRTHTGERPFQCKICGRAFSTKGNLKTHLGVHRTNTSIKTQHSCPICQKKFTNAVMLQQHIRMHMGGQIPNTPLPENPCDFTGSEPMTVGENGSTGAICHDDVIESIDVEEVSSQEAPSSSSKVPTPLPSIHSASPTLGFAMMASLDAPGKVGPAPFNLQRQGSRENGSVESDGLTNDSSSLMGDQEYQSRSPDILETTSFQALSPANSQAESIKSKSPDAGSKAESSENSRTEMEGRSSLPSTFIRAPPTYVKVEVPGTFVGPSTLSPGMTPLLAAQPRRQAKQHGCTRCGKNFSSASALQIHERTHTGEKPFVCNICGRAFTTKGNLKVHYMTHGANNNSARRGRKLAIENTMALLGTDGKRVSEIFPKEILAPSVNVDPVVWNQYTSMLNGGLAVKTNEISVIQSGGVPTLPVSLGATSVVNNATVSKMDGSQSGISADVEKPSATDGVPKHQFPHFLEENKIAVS
Notes: 8-mer, flanks averaged, mean of replicates
Oligonucleotide | E-score
CTCTTCAC | -0.0206
GACCCCTA | -0.294
AAATTGGT | 0.189
CCAGCAAA | 0.00671

Other studies, line by line
Molecule | target | assay | test system | conditions | scale | endpoint | value
AAAAAAAA (biotin) | Double-stranded RNA-specific adenosine deaminase, dsRBD 2 (ADAR, Homo sapiens, UniProt P55265, residues 595-700) | protein domain microarray | RNA, in vitro | not given, poly(A) 8-mer RNA, whole probe, immobilized GST-fusion domains, most near background | baseline: GST loading signal, higher = stronger binding | signal ratio | 0.0471
PhoQ, residues 284 288 289 292 302 303 SSTLSG | PhoP, residues 12 14 15 18 19 QWHVF (Escherichia coli, UniProt P23836) | Sort-seq, measured: YFP reporter | E. coli | PhoQ-PhoP variant library, together with: 10 µM Mg2+ | baseline: high Mg2+ state, higher = stronger signaling | fold induction | 2.31

A few entries again (sample 2):
Oligonucleotide | E-score
CCAGCAAA | 0.00671
